# Results collected from several papers.
# Lines come from different studies, so protocols differ.
# Organism: Escherichia coli
Structure (SMILES),assay,test system,conditions,scale,MIC
CC[C@H](C)[C@H](NC(=O)CNC(=O)[C@H](CCC(=O)O)NC(=O)[C@H](CO)NC(=O)[C@@H](NC(=O)[C@H](CCCNC(=N)N)NC(=O)[C@H](CCCCN)NC(=O)[C@H](CCCCN)NC(=O)[C@H](C)NC(=O)[C@H](CO)NC(=O)[C@H](CC(N)=O)NC(=O)[C@H](CCC(=O)O)NC(=O)[C@H](CC(C)C)NC(=O)[C@H](CCCCN)NC(=O)[C@H](CCCCN)NC(=O)[C@H](C)NC(=O)[C@@H](NC(=O)[C@H](CCCCN)NC(=O)[C@H](CO)NC(=O)[C@H](CC(C)C)NC(=O)[C@H](Cc1c[nH]c2ccccc12)NC(=O)[C@@H](N)CO)[C@@H](C)O)[C@@H](C)CC)C(=O)N[C@@H](C)C(=O)N[C@H](C(=O)N[C@@H](C)C(=O)N[C@H](C(=O)N[C@@H](CCC(N)=O)C(=O)NCC(=O)NCC(=O)N1CCC[C@H]1C(=O)N[C@@H](CCCNC(=N)N)C(=O)O)[C@@H](C)CC)[C@@H](C)CC,broth dilution,K12 BW25113,"18 h, 37 °C",,0.8 µM
CC[C@H](C)[C@H](NC(=O)[C@H](CC(C)C)NC(=O)[C@H](CCCCN)NC(=O)[C@@H](NC(=O)[C@H](C)NC(=O)[C@H](CCC(=O)O)NC(=O)[C@H](Cc1c[nH]cn1)NC(=O)[C@@H](NC(=O)[C@H](CCCCN)NC(=O)[C@H](CCC(N)=O)NC(=O)[C@H](Cc1ccccc1)NC(=O)[C@@H](NC(=O)[C@H](CCCCN)NC(=O)[C@@H](N)CCCCN)C(C)C)[C@@H](C)CC)[C@@H](C)CC)C(N)=O,broth microdilution,CCARM 1238 resistant,"18 h, 37 °C",,16 µM
CC[C@H](C)[C@H](NC(=O)[C@H](CCCNC(=N)N)NC(=O)[C@H](CO)NC(=O)[C@H](Cc1ccc(O)cc1)NC(=O)[C@@H](NC(=O)[C@@H](NC(=O)[C@H](C)NC(=O)CN)C(C)C)[C@@H](C)O)C(=O)N[C@@H](CO)C(=O)NCC(=O)N[C@@H](CCC(N)=O)C(=O)N[C@@H](Cc1ccc(O)cc1)C(=O)O,broth microdilution,"ATCC 25922, Mueller-Hinton broth","16 to 18 h, 37 °C",,> 512 µM
CC[C@H](C)[C@H](N)C(=O)N[C@@H](CC(C)C)C(=O)NCC(=O)N[C@@H](CCC(=O)O)C(=O)N[C@H](C(=O)N[C@@H](Cc1c[nH]c2ccccc12)C(=O)N[C@@H](CCCCN)C(=O)NCC(=O)N[C@H](C(=O)N[C@@H](CCCCN)C(=O)N[C@@H](CC(=O)O)C(=O)N[C@H](C(=O)N[C@@H](CC(C)C)C(N)=O)[C@@H](C)CC)[C@@H](C)CC)[C@@H](C)CC,broth microdilution,ATCC 25922,together with: NH4Cl 6 µM,,100 µM
CC(=O)C1=C(O)C(CC(C)C)NC1=O (centres unmarked),,K12 ΔtolC,,,> 200 µg/mL
CC[C@H](C)[C@H](NC(=O)CN)C(=O)N[C@@H](C)C(=O)N[C@@H](CCCCN)C(=O)N[C@@H](Cc1ccccc1)C(=O)N[C@H](C(=O)N[C@@H](CCCCN)C(=O)N[C@@H](CCCCN)C(=O)N[C@H](C(=O)N[C@@H](C)C(=O)N[C@@H](CCCCN)C(=O)N[C@@H](C)C(=O)N[C@@H](CC(C)C)C(=O)N[C@@H](CCCNC(=N)N)C(N)=O)[C@@H](C)CC)[C@@H](C)CC,,"ATCC 25922, Mueller-Hinton broth","12 h, 37 °C",,8 µg/mL
O=C(O)C1CSC(C(=O)O)N1 (centres unmarked),,NDM-1 producing,compound alone,,> 2000 µM
CC[C@H](C)[C@H](NC(=O)CNC(=O)[C@H](C)NC(=O)[C@@H](NC(=O)[C@@H](NC(=O)[C@@H](NC(=O)[C@H](CCCNC(=N)N)NC(=O)[C@@H](NC(=O)[C@@H](NC(=O)[C@@H](NC(=O)[C@@H]1CCCN1C(=O)[C@H](Cc1c[nH]c2ccccc12)NC(=O)[C@@H](NC(=O)[C@H](CCCNC(=N)N)NC(=O)[C@H](CCCCN)NC(=O)[C@@H](NC(=O)[C@@H](N)CCCNC(=N)N)[C@@H](C)CC)C(C)C)C(C)C)C(C)C)[C@@H](C)CC)[C@@H](C)O)C(C)C)C(C)C)C(=O)N[C@@H](CC(N)=O)C(=O)N[C@@H](CC(C)C)C(=O)N[C@@H](Cc1ccc(O)cc1)C(=O)N[C@@H](CCCNC(=N)N)C(=O)N[C@@H](C)C(=O)N[C@H](C(=O)N[C@@H](CCCCN)C(=O)N[C@@H](CCCNC(=N)N)C(=O)N[C@@H](CCCCN)C(=O)O)[C@@H](C)CC,broth microdilution,"K88, Mueller-Hinton broth",37 °C,,0.707 µM
CC[C@H](C)[C@H](NC(=O)CN)C(=O)NCC(=O)N[C@@H](C)C(=O)N[C@H](C(=O)N[C@@H](CC(C)C)C(=O)N[C@@H](CCCCN)C(=O)N[C@H](C(=O)N[C@@H](CC(C)C)C(=O)N[C@H](C(=O)N[C@H](C(=O)NCC(=O)N[C@@H](CC(C)C)C(=O)N1CCC[C@H]1C(=O)N[C@@H](C)C(=O)N[C@@H](CC(C)C)C(=O)N[C@H](C(=O)N[C@@H](CO)C(=O)N[C@@H](Cc1c[nH]c2ccccc12)C(=O)N[C@H](C(=O)N[C@@H](CCCCN)C(=O)N[C@@H](CCCNC(=N)N)C(=O)N[C@@H](CCCCN)C(=O)N[C@@H](CCCNC(=N)N)C(=O)N[C@@H](CCC(N)=O)C(=O)N[C@@H](CCC(N)=O)C(N)=O)[C@@H](C)CC)[C@@H](C)CC)[C@@H](C)O)[C@@H](C)O)C(C)C)C(C)C,,KCTC 1682,"16 h, 37 °C, Mueller-Hinton broth",,8 µM
CC1(C)SC2C(NC(=O)C(NC(=O)C3=C(O)C(c4ccccc4)NC3=O)c3ccccc3)C(=O)N2C1C(=O)O (centres unmarked),broth microdilution,Keio mutant JW0146-2,"18 h, ferric hydroxamate uptake gene",,25 µg/mL
CC[C@@H](C)[C@@H](N)C(=O)N[C@@H](C(=O)N[C@H](Cc1ccc(O)cc1)C(=O)N[C@@H](C(=O)N[C@H](CCN)C(=O)N[C@H](CC(C)C)C(=O)N[C@H](CO)C(=O)N[C@H](CCN)C(=O)N[C@@H](C(=O)N[C@H](CCN)C(=O)N[C@H](Cc1c[nH]cn1)C(=O)N[C@H](CCN)C(=O)N[C@H](C)C(=O)N[C@H](CCN)C(=O)N[C@H](CCN)C(N)=O)[C@H](C)CC)[C@H](C)CC)[C@H](C)CC,,"ATCC 25922, Mueller-Hinton broth","20 h, 37 °C",,4 µg/mL
CC[C@H](C)[C@H](NC(=O)CNC(=O)[C@H](CC(=O)O)NC(=O)[C@H](CCCNC(=N)N)NC(=O)[C@@H](NC(=O)[C@H](CC(N)=O)NC(=O)[C@H](CCCNC(=N)N)NC(=O)CNC(=O)[C@@H](NC(=O)[C@H](CCCCN)NC(=O)[C@H](CCC(=O)O)NC(=O)[C@@H](NC(=O)[C@H](CCCCN)NC(=O)[C@H](CCCCN)NC(=O)[C@H](Cc1ccccc1)NC(=O)[C@@H](NC(=O)[C@H](CCCCN)NC(=O)[C@H](Cc1c[nH]c2ccccc12)NC(=O)[C@@H](N)CCCNC(=N)N)[C@@H](C)CC)[C@@H](C)CC)C(C)C)C(C)C)C(=O)N[C@H](C(=O)N[C@@H](CCCCN)C(=O)N[C@@H](C)C(=O)NCC(=O)N1CCC[C@H]1C(=O)N[C@@H](C)C(=O)N[C@H](C(=O)N[C@@H](C)C(=O)N[C@@H](C)C(=O)N[C@@H](C)C(=O)NCC(=O)N[C@@H](CCC(N)=O)C(=O)N[C@@H](C)C(=O)N[C@@H](C)C(=O)N[C@H](C(=O)N[C@H](C(=O)N[C@H](C(=O)N[C@@H](CCCCN)C(N)=O)C(C)C)C(C)C)[C@@H](C)O)C(C)C)[C@@H](C)CC,,"K1 ATCC 700973, Mueller-Hinton broth","16 h, 37 °C",growth inhibition over 99%,2 µM
CC1(C)S[C@@H]2[C@H](NC(=O)Cc3ccccc3)C(=O)N2[C@H]1C(=O)O,,,,,250 µg/mL
CC1(C)S[C@@H]2[C@H](NC(=O)C(C(=O)O)c3ccccc3)C(=O)N2[C@H]1C(=O)O (some centres unmarked),broth microdilution,JW0790-2 fiu deletion mutant,ferric iron uptake gene,,6.25 µg/mL
CCCCCC(=O)N[C@@H](CCCNC(=N)N)C(=O)N[C@@H](CCCNC(=N)N)C(=O)N[C@@H](CCCNC(=N)N)C(=O)N[C@@H](CCCNC(=N)N)C(=O)N[C@H](C(=O)N[C@@H](CC(C)C)C(=O)N[C@H](C(=O)N[C@@H](CCCNC(=N)N)C(=O)N[C@@H](CCCNC(=N)N)C(=O)N[C@H](C(=O)N[C@@H](CC(C)C)C(=O)N[C@@H](CCCNC(=N)N)C(=O)N[C@@H](CC(C)C)C(=O)N[C@@H](CCCNC(=N)N)C(=O)N[C@@H](CO)C(=O)N[C@@H](CO)C(=O)N[C@@H](C)C(=O)N[C@@H](Cc1ccc(O)cc1)C(N)=O)C(C)C)[C@@H](C)CC)[C@@H](C)CC,checkerboard,,"24 h, 37 °C, alone, azithromycin plate",,16 µM
COc1c(N2C[C@@H]3CCCN[C@@H]3C2)c(F)cc2c(=O)c(C(=O)O)cn(C3CC3)c12,,"NR 17661, fluoroquinolone-resistant",,,73 µM
Cn1cc(NC(=O)C(CC(N)=O)NC(=O)c2ccc(NC(=O)c3ccc(C#N)cc3)cc2)cc1-c1nc2ccc(C(=O)Nc3ccc(C(=O)O)cc3)c(O)c2[nH]1 (centres unmarked),,K12 ΔtolC,,,> 64 µg/mL
CC(C)(O/N=C(\C(=O)N[C@@H]1C(=O)N2C(C(=O)[O-])=C(C[n+]3ccccc3)CS[C@H]12)c1csc(N)n1)C(=O)O,,DH5a clone with KPC-100,,,32 µg/mL
CC[C@H](C)[C@H](NC(=O)[C@H](CC(C)C)NC(=O)[C@@H](NC(=O)[C@H](Cc1ccc(O)cc1)NC(=O)[C@H](CO)NC(=O)CNC(=O)[C@H](CCCNC(=N)N)NC(=O)[C@H](CCCNC(=N)N)NC(=O)[C@H](CCCNC(=N)N)NC(=O)[C@@H]1CCCN1C(=O)[C@H](CCCCN)NC(=O)[C@H](Cc1c[nH]c2ccccc12)NC(=O)[C@@H](NC(=O)[C@H](Cc1c[nH]c2ccccc12)NC(=O)[C@H](CCCCN)NC(=O)[C@H](CCCNC(=N)N)NC(=O)[C@H](CCCNC(=N)N)NC(=O)[C@@H]1CCCN1C(=O)[C@H](CO)NC(=O)[C@H](CCCNC(=N)N)NC(=O)[C@H](CO)NC(=O)[C@H](CCCNC(=N)N)NC(=O)[C@@H](N)CCCNC(=N)N)[C@@H](C)O)[C@@H](C)O)C(=O)N[C@@H](CO)C(=O)N[C@@H](CCC(N)=O)C(=O)NCC(=O)NCC(=O)N[C@@H](CC(N)=O)C(=O)O,,ATCC 25922,highest concentration 50 µM,,21.8 µM
CC[C@H](C)[C@H](NC(=O)[C@H](CCCCN)NC(=O)[C@H](CCCCN)NC(=O)CNC(=O)[C@H](CCCCN)NC(=O)[C@H](CC(C)C)NC(=O)[C@H](CCCCN)NC(=O)[C@H](CCCNC(=N)N)NC(=O)[C@@H](NC(=O)[C@H](CC(C)C)NC(=O)[C@H](CCCNC(=N)N)NC(=O)[C@@H](N)CCCNC(=N)N)[C@@H](C)CC)C(=O)N[C@@H](Cc1ccc(O)cc1)C(=O)N[C@@H](CC(C)C)C(=O)N[C@@H](Cc1ccc(O)cc1)C(=O)N[C@@H](Cc1ccccc1)C(=O)N[C@@H](CCCCN)C(=O)N[C@@H](CC(C)C)C(=O)N[C@@H](CCC(N)=O)C(=O)N[C@@H](CC(C)C)C(=O)N[C@@H](CC(C)C)C(=O)N[C@@H](CCCCN)C(=O)N[C@@H](CCCCN)C(N)=O,,"KCTC 1682, Mueller-Hinton broth",together with: 2.5 mM CaCl2,,32 µM

# A few entries again:
Structure (SMILES),assay,test system,conditions,scale,MIC
CC[C@H](C)[C@H](NC(=O)CN)C(=O)NCC(=O)N[C@@H](C)C(=O)N[C@H](C(=O)N[C@@H](CC(C)C)C(=O)N[C@@H](CCCCN)C(=O)N[C@H](C(=O)N[C@@H](CC(C)C)C(=O)N[C@H](C(=O)N[C@H](C(=O)NCC(=O)N[C@@H](CC(C)C)C(=O)N1CCC[C@H]1C(=O)N[C@@H](C)C(=O)N[C@@H](CC(C)C)C(=O)N[C@H](C(=O)N[C@@H](CO)C(=O)N[C@@H](Cc1c[nH]c2ccccc12)C(=O)N[C@H](C(=O)N[C@@H](CCCCN)C(=O)N[C@@H](CCCNC(=N)N)C(=O)N[C@@H](CCCCN)C(=O)N[C@@H](CCCNC(=N)N)C(=O)N[C@@H](CCC(N)=O)C(=O)N[C@@H](CCC(N)=O)C(N)=O)[C@@H](C)CC)[C@@H](C)CC)[C@@H](C)O)[C@@H](C)O)C(C)C)C(C)C,,KCTC 1682,"16 h, 37 °C, Mueller-Hinton broth",,8 µM
CC1(C)SC2C(NC(=O)C(NC(=O)C3=C(O)C(c4ccccc4)NC3=O)c3ccccc3)C(=O)N2C1C(=O)O (centres unmarked),broth microdilution,Keio mutant JW0146-2,"18 h, ferric hydroxamate uptake gene",,25 µg/mL
CC[C@@H](C)[C@@H](N)C(=O)N[C@@H](C(=O)N[C@H](Cc1ccc(O)cc1)C(=O)N[C@@H](C(=O)N[C@H](CCN)C(=O)N[C@H](CC(C)C)C(=O)N[C@H](CO)C(=O)N[C@H](CCN)C(=O)N[C@@H](C(=O)N[C@H](CCN)C(=O)N[C@H](Cc1c[nH]cn1)C(=O)N[C@H](CCN)C(=O)N[C@H](C)C(=O)N[C@H](CCN)C(=O)N[C@H](CCN)C(N)=O)[C@H](C)CC)[C@H](C)CC)[C@H](C)CC,,"ATCC 25922, Mueller-Hinton broth","20 h, 37 °C",,4 µg/mL
